Published values of several laboratories.
Target: Atypical kinase COQ8A, mitochondrial (COQ8A, Homo sapiens, UniProt Q8NI60)

For `C=CC(=O)N1CCCC(n2c(=O)c3ncccc3n(Cc3ccc(Oc4ccccc4)cc3)c2=O)C1` (centres unmarked), the remaining binding was 93% (cell-free assay, competition with immobilised ligand; 1 µM).
`CN1CCN(Cc2ccc(-c3ccc(CO[C@H]4CCC[C@@H]4NC(=O)c4cc(-c5cnn(C)c5)cnc4N)cc3)cc2)CC1` has an inhibition of -3% (enzyme activity, inhibitor; 0.1 µM).
The remaining binding of `Nc1ncc2c(n1)-c1c([nH]c3ccc(C4=CCOCC4)cc13)CCC2` is reported as 100% (binding, competition with immobilised ligand; 1 µM).
With `COc1cc(Nc2nccc(-c3cnn4nc(OC)ccc34)n2)cc(C(F)(F)F)c1` the remaining binding was 99% (binding, competition with immobilised ligand; 1 µM).
With `Cc1cnc2nc1Nc1cccc(c1)COC/C=C/COCc1cc(ccc1OCCN1CCOCC1)N2` the remaining binding was 100% (binding, competition with immobilised ligand; 0.1 µM).
With `CNS(=O)(=O)Nc1nccc(Cc2c(C)c3ccc(Oc4ncccc4F)cc3oc2=O)c1F` the remaining binding was 100% (binding, competition with immobilised ligand; 10 µM).
`CN1CCN(Cc2ccc(NC(=O)c3cccc(C#Cc4cnc(N)c5ncccc45)c3)cc2C(F)(F)F)CC1` gave a remaining binding of 100% (cell-free assay, competition with immobilised ligand; 0.5 µM).
With `CC(C)=CC1OC(C)(C)C2C=C3C(=O)C(Cl)=CC(O)C3C3C(O)C4OC4C(=O)C132` (centres unmarked) the remaining binding was 84% (cell-free assay, competition with immobilised ligand; 10 µM).
`C=CC(=O)N1Cc2nc(-c3cc(-c4cc(Cl)cnc4Cl)c(F)cc3F)n(-c3ccncn3)c2C1` has an inhibition of 28.2% (enzyme activity, inhibitor; 1 µM).
With `COc1cc(Nc2nc(C)cc(-c3cnn4nc(OC)ccc34)n2)cc(C(F)(F)F)c1` the remaining binding was 91% (KINOMEscan binding; 1000 nM; reference: control).
For `C=C1CCCCCCCCCC(CO)C1=O` (centres unmarked), the remaining binding was 98% (cell-free assay, competition with immobilised ligand; 10 µM).
`CCN1CCN(Cc2ccc(C(=O)Nc3ccc(C)c(NCc4cnc5[nH]ccc5c4OC)c3)cc2C(F)(F)F)CC1` has a remaining binding of 100% (binding, competition with immobilised ligand; 1 µM).
With `CC(=O)N1c2ccc(-c3ccc(CNC(=O)c4cn5cc(-c6cnc(N)nc6)nc(N6CCOCC6)c5n4)cc3)cc2CC[C@@H]1C` the remaining binding was 75% (binding, competition with immobilised ligand; 10 µM).
For `CNC1C[S+]2CC[S+]3CC[S+](C1)[Ru-4]321([N]=C=S)[n]2c3ccc(OC)cc3c3c4c(c5cc(F)c[n+]1c5c32)C(=O)NC4=O` (centres unmarked), the remaining binding was 88% (KinomeScan; 0.1 µM; reference: untreated).
The remaining binding of `CNC(=O)C1CCN(c2cc(C)c(F)cc2NC(=O)c2ccc(-c3cc(O)ccc3C)c(C)c2)CC1` is reported as 100% (binding, competition with immobilised ligand; 1 µM).
With `C#CCCCCNC(=O)c1ccc(N(C(=O)C=C)c2ccc(Br)cc2)cc1` the reactivity ratio was 1.83 (mass spectrometry profiling, item: ADCK3; H460 cell lysate; 100 µM over 10 µM, UniProt Q8NI60; reference: high over low concentration).
For `COc1ccc(NC(=O)Nc2ccc3c(c2)C(=O)N(C(C)CO)CC(C)C(CN(C)Cc2ccc4c(c2)OCO4)O3)cc1` (centres unmarked), the remaining binding was 84% (binding, competition with immobilised ligand; 10 µM).
`Cc1ccc(-c2c(/C=C(\C#N)C(=O)NC(C)C)n(CCCO)c3ncnc(N)c23)cc1` has a remaining binding of 100% (cell-free assay, competition with immobilised ligand; 1 µM).
The remaining binding of `C=CC(=O)N1CCc2ccc(-n3c(=O)ccc4cnc5ccc(-c6cnn(C)c6)cc5c43)cc21` is reported as 98% (KINOMEscan; 1 µM; reference: DMSO control).
`COc1c(Cl)cccc1Nc1c(-c2ccncc2C#C[C@@]2(C)CCCN2C(=O)/C=C/CN(C)C)[nH]c2c1C(=O)NCC2` has a remaining binding of 100% (cell-free assay, competition with immobilised ligand; 3 µM).
